Published values of several laboratories.
Numbered parts are unrelated; each lists some results of a single study.

Sample 1
Target: Transcriptional repressor CTCF (CTCF, Homo sapiens, UniProt P49711, residues 1-727, full length assumed)
Method: protein-binding microarray
Form: double-stranded DNA, one strand shown
Sample: in vitro
Tested at: not given
Notes: k-mer, scored over probes, only values ≥0.25
Direction: higher = stronger binding
Target sequence (chain): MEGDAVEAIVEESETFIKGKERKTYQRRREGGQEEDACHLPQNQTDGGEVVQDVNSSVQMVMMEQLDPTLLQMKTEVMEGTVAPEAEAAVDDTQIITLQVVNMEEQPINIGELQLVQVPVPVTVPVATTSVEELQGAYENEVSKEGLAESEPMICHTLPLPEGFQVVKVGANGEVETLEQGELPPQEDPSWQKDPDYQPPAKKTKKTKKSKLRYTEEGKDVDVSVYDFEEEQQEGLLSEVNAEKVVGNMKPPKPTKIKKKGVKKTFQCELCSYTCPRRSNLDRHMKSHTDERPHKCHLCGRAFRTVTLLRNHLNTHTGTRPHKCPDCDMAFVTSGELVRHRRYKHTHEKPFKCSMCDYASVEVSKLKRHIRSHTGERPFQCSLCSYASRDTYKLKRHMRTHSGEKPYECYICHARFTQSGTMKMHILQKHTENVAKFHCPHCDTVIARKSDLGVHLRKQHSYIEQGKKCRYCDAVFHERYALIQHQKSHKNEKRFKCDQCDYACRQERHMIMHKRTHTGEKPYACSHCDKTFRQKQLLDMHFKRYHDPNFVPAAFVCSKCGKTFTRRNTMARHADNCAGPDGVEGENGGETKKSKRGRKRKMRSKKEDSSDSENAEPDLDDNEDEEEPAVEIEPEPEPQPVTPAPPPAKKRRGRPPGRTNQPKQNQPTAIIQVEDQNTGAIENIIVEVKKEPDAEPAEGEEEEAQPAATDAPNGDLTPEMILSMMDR
| Strand | E-score |
| --- | --- |
| ATATTCTA | 0.291 |
| ATATAATA | 0.366 |
| AATTGCAC | 0.265 |
| ATTAACTG | 0.269 |
| ATGAAACA | 0.315 |
| GCGCGCTA | 0.338 |
| TACTACTA | 0.27 |
| GGGGCGCA | 0.417 |
| GCATTTTA | 0.357 |
| AGGCGGCG | 0.255 |
| TTAAATAA | 0.264 |
| AGGCGCAA | 0.272 |
| CGATACTA | 0.253 |
| ATTAAAAC | 0.261 |
| CAAAAAAA | 0.288 |
| CATAGTAA | 0.281 |
| GATAGGTA | 0.26 |
| ATATCAAG | 0.272 |
| AAACATAA | 0.329 |
| ATAACACA | 0.325 |
| AATATGAA | 0.276 |
| GCGCGAAA | 0.333 |
| TATTTCGA | 0.295 |
| AATAAATG | 0.274 |
| GAAACATA | 0.304 |

Sample 2
Target: Hepatocyte nuclear factor 3-alpha (Foxa1, Mus musculus, UniProt P35582, residues 1-468, full length assumed)
Method: EMSA with sequencing
Form: double-stranded DNA, one strand shown
Sample: in vitro
Tested at: 10 and 20 nM
Notes: whole designed probe, mean of two concentrations, ends assumed
Baseline: negative control set to 0
Direction: higher = stronger binding
All sequences stand within: GTGAGCGGTGCCCATTGATGGGGAAC … TTTCACTGGGATCGTGGGGAC
Construct (chain): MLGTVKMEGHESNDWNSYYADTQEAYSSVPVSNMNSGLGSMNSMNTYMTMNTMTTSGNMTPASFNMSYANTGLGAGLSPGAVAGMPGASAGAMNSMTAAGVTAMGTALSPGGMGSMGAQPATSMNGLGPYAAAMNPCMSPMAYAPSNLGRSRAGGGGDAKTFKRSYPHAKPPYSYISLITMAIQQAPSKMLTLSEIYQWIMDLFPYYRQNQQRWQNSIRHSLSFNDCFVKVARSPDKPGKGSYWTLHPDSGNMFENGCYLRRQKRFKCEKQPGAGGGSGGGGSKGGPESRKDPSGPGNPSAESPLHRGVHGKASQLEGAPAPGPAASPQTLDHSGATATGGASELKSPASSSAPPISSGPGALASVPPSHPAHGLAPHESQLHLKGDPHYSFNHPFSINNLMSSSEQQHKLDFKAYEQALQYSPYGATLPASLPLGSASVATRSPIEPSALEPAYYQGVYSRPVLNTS
| Strand | normalised bound fraction [ratio] |
| --- | --- |
| ATTCTTGGGGGTGCGCTGATTCCAGGCTCTCGCCCCAGCTTTGGGCCCAGGGCAGTGAGCATGTGTAGTTACTTATCTAGGATTGCAACCTGAGTCATCTGTGAAACCAGGAAGTGAACTCGGGGTCCGGCATTGTATGGAAAGTTGGGTGAAATTACTTTTCTCTTAAAGCAAACTTTGATTGACTCTTTAA | 0.0126 |
| ATGAAGGGCTGCCAGTGTAATTTGAACCTCAAATAAACAACAGATAAAACTGTAGTATAAGTATGTCCCATATACATTGCACAACGATCTTTTTGTTTGCCTAATCTGGCAAAGATATTGACTTAACACACACTAATCTGTTGACAGGTAGGTGAAATATTTGAACTTCTACGTTGCTTCTCTAATCCTGTCC | 0.391 |
| ATCTTCCCCCTCTTCCTTGCCCCACCAGCTCACCTTCCCGGGTTATTTGCAGATAGGAAAATAAATAAAGCCGGCATTCGTTAACCCTCTTCACGCGCATACTGCTGTTTGCTCTGGATGAATCATGGTCCTTTGGCGACGCCAGGCTCCGGGAGAGCAAAGCACCGTGTCAGGGCCATGATCCGGGCTCGCC | 0.341 |
| AACAATGCTTCTTAAAATATTCTACCATATTTTAAGAAGCAATTTCTCCAAATATTTTCTAATTGATAATATTTCAGGCTTATACATTTTTATGTTTACTTTGGGGATCACAAGAAAGCTAATCAACTTTTAATTTGTAGAATGTAACAGGGCATATTCACGTAAGTTTATACATACTTTCCTATATTTAATC | 0.448 |
| TCTATTCAACAAATTAATTGATGTCTAGAAAAATTAATAAGGAATATTCAAGAAACGGTAACTTTTTAACCTTGCAAGAATATAAAAACAAAGTAATCTTCAACGAGAAATTTATTTGTAAATGAGACACCCAGGTGTATTCATTTGCATTTTATTAATGGAAATTTTTTCCTGAAATGACCATGAAACTTGA | 0.0343 |
| AAATAAGAAGCACATGTTAACTATTTAAAGTGCCTGGGAGTGTGATTCTTAATAACAAGACCAGGTGACTGCTAACAAGCCCAGGTGAGAAAAGTAAACAAGCTATGACTCAAACCCAGTCTACCTATTGAATTACGAACTTGCTTCCGAAGAACCAGACAGAGAGTCCTAAACCGGTCAAAAGCAAAGCAGG | 0.485 |
| TCCTTCTCTCCAGCTCCACCTGGTCCTGGGAAGAGGGACTGCCACACCGGATGGACTGAGGTCTGAAGCCAGCTCCTGCCACTTGTGCTCTGTGTCAATAAGGCATCTCCCTCTCTGGCTTCCAGTTCCTCCTCTATGAGTAGGTAATGGGGTTACGCTCCATTTCTTGTGGGGAAATGTGAAGCTCGTATGA | 0.263 |
| ATACACAGCAGAGAAGTCACATCCTAGTTACTCTCACTTTCTACCTTGTATTACTACTTTTCGTACCCCTAGCTTATTGCTATTAGTACAATGTAATCTGGGAGTTCACACACACATACCCCTGGTCTAAGAAGAATAAAAAATGAAGGAGATTTCTGTTTGTATAGAAAACAGAAGTCACCTTGACTTTTAT | 0.138 |

Sample 3
Target: Probable WRKY transcription factor 50, DNA-binding domain (WRKY50, Arabidopsis thaliana, UniProt Q8VWQ5, residues 99-173)
Method: DNA-protein interaction ELISA
Form: double-stranded DNA, one strand shown
Sample: in vitro, bacterial lysate
Tested at: not given
Notes: whole dsDNA probe, crude lysate protein
Baseline: highest signal in screen
Direction: higher = stronger binding
Construct (chain): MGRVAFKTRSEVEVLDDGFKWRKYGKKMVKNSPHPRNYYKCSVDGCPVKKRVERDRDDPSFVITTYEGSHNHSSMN
| Strand | relative absorbance |
| --- | --- |
| AAAAAACTCTTAAGGAAAGTTCCGACAAAA | 48.1 % of maximum |
| AAAAAACACTTAACTGAGTGGGATTGAAAA | 19.7 % of maximum |
| AAAAAACCCTACATCGCATATAAGAGAAAA | 8.22 % of maximum |
| AAAAAAGTGTGTGGCTCAGGATTCCCAAAA | 28.5 % of maximum |
| AAAAAATAAATCGCGGCTACTGCTTCAAAA | 23.5 % of maximum |
| AAAAAAGCTTTCAACATCTGCGTCCAAAAA | 20.2 % of maximum |
| AAAAAATCAGTCTGAGACTTACAACTAAAA | 22.1 % of maximum |
| AAAAAAGGAAGTACTGACGATCTGGAAAAA | 34.9 % of maximum |
| AAAAAAGCGCGCCCGCACTGTTAATAAAAA | 12.1 % of maximum |
| AAAAAAGTCTCACCTTTAGTCTTAATAAAA | 35 % of maximum |
| AAAAAAATCTCACTCCTGGTCCCCATAAAA | 10.7 % of maximum |
| AAAAAAACGGGTTGTGAATGTGGAAGAAAA | 42.2 % of maximum |
| AAAAAACTCGTACATCTATCGCTACGAAAA | 11.8 % of maximum |
| AAAAAAGTATAACGTGTTGTTGACCGAAAA | 55 % of maximum |
| AAAAAATTGTGCCTCTGCCCTCGCCTAAAA | 22.5 % of maximum |
| AAAAAATTCTAGCTTTTAACTTTAGCAAAA | 14.1 % of maximum |
| AAAAAATTCGTTTTTCGTCTTTCATTAAAA | 37.5 % of maximum |
| AAAAAATGTCTAGACTCGGACATTCGAAAA | 14.3 % of maximum |
| AAAAAAGTAGGTGCTGATGCTGGCCGAAAA | 12.2 % of maximum |

Sample 4
Target: Ras GTPase-activating protein-binding protein 1, full length (G3BP1, Homo sapiens, UniProt Q13283)
Chain of UniProt Q13283 (whole entry, looked up): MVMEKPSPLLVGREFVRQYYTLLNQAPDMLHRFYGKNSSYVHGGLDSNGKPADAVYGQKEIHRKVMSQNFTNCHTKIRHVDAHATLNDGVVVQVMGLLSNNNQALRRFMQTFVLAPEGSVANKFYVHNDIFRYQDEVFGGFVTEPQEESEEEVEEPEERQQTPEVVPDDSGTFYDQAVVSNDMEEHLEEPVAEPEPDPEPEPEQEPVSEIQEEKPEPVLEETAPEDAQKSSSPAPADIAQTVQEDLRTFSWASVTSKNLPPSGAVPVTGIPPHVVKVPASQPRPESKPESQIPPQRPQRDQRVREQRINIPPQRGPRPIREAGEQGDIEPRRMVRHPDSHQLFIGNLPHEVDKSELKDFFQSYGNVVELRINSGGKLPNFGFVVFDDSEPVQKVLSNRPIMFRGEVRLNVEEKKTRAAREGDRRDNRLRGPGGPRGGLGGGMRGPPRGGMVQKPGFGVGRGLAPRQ
Method: RNA Bind-n-Seq
Form: RNA
Sample: in vitro
Tested at: 200 nM
Notes: whole 134-nt RNA, ends assumed
Added: 150 mM LiCl
Baseline: input library
Direction: higher = stronger binding
Library: 7-deaza-guanosine replaces G
All sequences stand within: GGGAGUUCUACAGUCCGACGAUC … UGGAAUUCUCGGGUGUCAAGG
| Strand | log2 enrichment |
| --- | --- |
| AGUCCUGUGCUACACAUCGUAUGUACCGAAUCGGUUUGGAAAAAAAGGAAAAAAAGGAAAGUAUUAUGUUACGCCGUUCGGAUCUGCACU | -1.48 |
| UUUCUCCACAGGAGCCCCGCAAGUGAGCCAGCCACUGCGAGAGCAGAGUGAGGAUAUACCUGGAGCCAUUUCCUCUGCCCUGGCAGCCAU | 1.17 |
| UGGCCCUCAAGCACUGCACAGAGGCCCUUCUUUCUCUUGGCCAGUACUCCAUGGCAGACUUCACAGGGCCUUGUCCAUUGGAAAUAGAAC | 0.522 |
| UCAAGUCCUGUGCUACACAUCGUAUGUACCGAAUCGGGUGGGAAAGGGAAAGGGAAAGUAUUAUGUUACGCCGUUCGGAUCUGCACUUCC | -0.824 |
| UCCUGUGCUACACAUCGUAUGUACCGAAUCAAACCCCCCCAAACCCAAACCCCCCCAAAAAAGUAUUAUGUUACGCCGUUCGGAUCUGCA | -0.536 |
| GUCCUGUGCUACACAUCGUAUGUACCGAAUCGGGUUUUUUUGGGAAAAAAAGGGAGGGAAAGUAUUAUGUUACGCCGUUCGGAUCUGCAC | -1.44 |
| UCCUGUGCUACACAUCGUAUGUACCGAAUCGGGAAAAAAGGGGAAAAAAGGGAAAAAAGGAAAGUAUUAUGUUACGCCGUUCGGAUCUGC | -0.125 |
| UAACUUUAGAGGAGGAUCUGAUGGAUAUGGCAGUGGACGUGGAUUUGGGGAUGGCUAUAAUGGGUAUGGAGGAGGACCUGGAAGUGGCAA | -0.168 |
| CAAGUCCUGUGCUACACAUCGUAUGUACCGAAUCGGGAAAAAGGGUUUGGGAGGGAAAGUAUUAUGUUACGCCGUUCGGAUCUGCACUUC | -0.659 |
| UCAAGUCCUGUGCUACACAUCGUAUGUACCGAAUCGGGUGGGAGGGAAAAAGGGAAAGUAUUAUGUUACGCCGUUCGGAUCUGCACUUCC | -0.232 |
| CUCAAGUCCUGUGCUACACAUCGUAUGUACCGAAUCGGGUUGGGGUUGGUUGGAAAGUAUUAUGUUACGCCGUUCGGAUCUGCACUUCCA | 0.226 |

A few entries again (sample 3):
| Strand | relative absorbance |
| --- | --- |
| AAAAAAGTATAACGTGTTGTTGACCGAAAA | 55 % of maximum |
| AAAAAAGGAAGTACTGACGATCTGGAAAAA | 34.9 % of maximum |
| AAAAAAGTGTGTGGCTCAGGATTCCCAAAA | 28.5 % of maximum |
| AAAAAAACGGGTTGTGAATGTGGAAGAAAA | 42.2 % of maximum |
| AAAAAAGCTTTCAACATCTGCGTCCAAAAA | 20.2 % of maximum |
| AAAAAACACTTAACTGAGTGGGATTGAAAA | 19.7 % of maximum |
| AAAAAAGTCTCACCTTTAGTCTTAATAAAA | 35 % of maximum |
